{"data": "Results collected from several papers", "note": "Each numbered part is a random draw from the data of one study; scales do not carry over between parts.", "chain of UniProt P08069 (whole entry, looked up)": "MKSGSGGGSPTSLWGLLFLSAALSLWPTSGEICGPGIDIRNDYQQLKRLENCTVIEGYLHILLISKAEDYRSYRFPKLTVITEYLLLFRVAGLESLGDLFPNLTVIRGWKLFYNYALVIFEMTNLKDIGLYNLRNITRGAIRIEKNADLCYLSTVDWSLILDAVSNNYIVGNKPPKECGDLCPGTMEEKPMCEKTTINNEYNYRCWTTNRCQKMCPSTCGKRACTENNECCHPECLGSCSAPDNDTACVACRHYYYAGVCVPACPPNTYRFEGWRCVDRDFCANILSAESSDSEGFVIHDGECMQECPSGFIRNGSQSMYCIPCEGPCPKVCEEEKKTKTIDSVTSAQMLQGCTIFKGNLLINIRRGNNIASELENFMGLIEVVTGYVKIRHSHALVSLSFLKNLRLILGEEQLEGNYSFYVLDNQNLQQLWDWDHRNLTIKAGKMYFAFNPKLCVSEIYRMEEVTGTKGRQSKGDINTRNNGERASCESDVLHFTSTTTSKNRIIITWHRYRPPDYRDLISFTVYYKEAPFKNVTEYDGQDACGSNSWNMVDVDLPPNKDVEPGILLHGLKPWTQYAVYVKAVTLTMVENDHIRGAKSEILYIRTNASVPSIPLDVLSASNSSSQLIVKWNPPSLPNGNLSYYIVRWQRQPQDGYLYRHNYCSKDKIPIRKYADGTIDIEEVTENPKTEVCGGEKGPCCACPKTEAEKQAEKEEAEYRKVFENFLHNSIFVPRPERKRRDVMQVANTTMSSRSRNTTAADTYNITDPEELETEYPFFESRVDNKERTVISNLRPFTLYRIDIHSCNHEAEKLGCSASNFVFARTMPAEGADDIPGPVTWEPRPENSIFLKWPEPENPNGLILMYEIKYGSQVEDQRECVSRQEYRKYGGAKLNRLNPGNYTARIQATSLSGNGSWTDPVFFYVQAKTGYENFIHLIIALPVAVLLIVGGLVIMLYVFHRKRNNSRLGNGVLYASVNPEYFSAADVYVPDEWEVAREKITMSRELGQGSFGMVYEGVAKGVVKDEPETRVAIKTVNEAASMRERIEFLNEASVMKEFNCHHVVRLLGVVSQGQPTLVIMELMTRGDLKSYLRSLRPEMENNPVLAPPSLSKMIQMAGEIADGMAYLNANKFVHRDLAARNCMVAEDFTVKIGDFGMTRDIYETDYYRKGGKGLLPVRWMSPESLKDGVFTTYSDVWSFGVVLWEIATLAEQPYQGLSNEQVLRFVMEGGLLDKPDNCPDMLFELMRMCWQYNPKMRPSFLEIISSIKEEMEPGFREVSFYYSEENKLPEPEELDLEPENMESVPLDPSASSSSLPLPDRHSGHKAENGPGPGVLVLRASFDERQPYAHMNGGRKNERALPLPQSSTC", "chain of UniProt Q8N5S9 (whole entry, looked up)": "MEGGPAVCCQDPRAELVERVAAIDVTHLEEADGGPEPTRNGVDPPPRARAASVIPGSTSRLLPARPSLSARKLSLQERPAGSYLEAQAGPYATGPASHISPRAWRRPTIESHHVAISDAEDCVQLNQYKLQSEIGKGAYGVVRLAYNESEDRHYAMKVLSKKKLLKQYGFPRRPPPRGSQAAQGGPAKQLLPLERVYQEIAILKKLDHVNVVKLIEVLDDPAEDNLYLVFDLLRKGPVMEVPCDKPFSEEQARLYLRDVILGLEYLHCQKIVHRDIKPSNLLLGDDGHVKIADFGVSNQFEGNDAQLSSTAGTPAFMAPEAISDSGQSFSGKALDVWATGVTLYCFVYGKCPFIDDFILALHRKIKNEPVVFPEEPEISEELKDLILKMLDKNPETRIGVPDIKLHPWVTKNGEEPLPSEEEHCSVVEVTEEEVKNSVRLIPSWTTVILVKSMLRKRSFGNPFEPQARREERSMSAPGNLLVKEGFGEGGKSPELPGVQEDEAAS", "chain of UniProt Q96SB4 (whole entry, looked up)": "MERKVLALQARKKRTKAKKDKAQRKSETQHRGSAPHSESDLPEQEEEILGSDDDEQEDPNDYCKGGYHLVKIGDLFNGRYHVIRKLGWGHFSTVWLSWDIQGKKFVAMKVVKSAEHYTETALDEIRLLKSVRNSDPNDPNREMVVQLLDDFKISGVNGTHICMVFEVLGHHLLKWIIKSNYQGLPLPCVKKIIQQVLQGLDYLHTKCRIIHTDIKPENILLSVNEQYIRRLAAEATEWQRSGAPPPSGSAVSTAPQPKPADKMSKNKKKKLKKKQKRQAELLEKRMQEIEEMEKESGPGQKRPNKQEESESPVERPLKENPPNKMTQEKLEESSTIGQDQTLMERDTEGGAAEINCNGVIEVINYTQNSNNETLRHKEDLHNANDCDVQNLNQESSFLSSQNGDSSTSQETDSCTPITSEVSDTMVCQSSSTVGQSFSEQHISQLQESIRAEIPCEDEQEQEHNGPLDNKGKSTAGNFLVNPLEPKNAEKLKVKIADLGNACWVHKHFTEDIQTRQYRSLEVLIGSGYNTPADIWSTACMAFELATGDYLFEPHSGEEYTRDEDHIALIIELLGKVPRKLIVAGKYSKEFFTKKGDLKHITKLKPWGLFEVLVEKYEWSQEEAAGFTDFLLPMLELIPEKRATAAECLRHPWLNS"}
{"data": "Block 1", "target": "DNA polymerase theta, ATPase domain (POLQ, Homo sapiens, UniProt O75417)", "observed": "enzyme activity", "mode": "inhibitor", "tested at": "77 µM", "reference": "untreated", "chain of UniProt O75417 (whole entry, unmodified, looked up)": "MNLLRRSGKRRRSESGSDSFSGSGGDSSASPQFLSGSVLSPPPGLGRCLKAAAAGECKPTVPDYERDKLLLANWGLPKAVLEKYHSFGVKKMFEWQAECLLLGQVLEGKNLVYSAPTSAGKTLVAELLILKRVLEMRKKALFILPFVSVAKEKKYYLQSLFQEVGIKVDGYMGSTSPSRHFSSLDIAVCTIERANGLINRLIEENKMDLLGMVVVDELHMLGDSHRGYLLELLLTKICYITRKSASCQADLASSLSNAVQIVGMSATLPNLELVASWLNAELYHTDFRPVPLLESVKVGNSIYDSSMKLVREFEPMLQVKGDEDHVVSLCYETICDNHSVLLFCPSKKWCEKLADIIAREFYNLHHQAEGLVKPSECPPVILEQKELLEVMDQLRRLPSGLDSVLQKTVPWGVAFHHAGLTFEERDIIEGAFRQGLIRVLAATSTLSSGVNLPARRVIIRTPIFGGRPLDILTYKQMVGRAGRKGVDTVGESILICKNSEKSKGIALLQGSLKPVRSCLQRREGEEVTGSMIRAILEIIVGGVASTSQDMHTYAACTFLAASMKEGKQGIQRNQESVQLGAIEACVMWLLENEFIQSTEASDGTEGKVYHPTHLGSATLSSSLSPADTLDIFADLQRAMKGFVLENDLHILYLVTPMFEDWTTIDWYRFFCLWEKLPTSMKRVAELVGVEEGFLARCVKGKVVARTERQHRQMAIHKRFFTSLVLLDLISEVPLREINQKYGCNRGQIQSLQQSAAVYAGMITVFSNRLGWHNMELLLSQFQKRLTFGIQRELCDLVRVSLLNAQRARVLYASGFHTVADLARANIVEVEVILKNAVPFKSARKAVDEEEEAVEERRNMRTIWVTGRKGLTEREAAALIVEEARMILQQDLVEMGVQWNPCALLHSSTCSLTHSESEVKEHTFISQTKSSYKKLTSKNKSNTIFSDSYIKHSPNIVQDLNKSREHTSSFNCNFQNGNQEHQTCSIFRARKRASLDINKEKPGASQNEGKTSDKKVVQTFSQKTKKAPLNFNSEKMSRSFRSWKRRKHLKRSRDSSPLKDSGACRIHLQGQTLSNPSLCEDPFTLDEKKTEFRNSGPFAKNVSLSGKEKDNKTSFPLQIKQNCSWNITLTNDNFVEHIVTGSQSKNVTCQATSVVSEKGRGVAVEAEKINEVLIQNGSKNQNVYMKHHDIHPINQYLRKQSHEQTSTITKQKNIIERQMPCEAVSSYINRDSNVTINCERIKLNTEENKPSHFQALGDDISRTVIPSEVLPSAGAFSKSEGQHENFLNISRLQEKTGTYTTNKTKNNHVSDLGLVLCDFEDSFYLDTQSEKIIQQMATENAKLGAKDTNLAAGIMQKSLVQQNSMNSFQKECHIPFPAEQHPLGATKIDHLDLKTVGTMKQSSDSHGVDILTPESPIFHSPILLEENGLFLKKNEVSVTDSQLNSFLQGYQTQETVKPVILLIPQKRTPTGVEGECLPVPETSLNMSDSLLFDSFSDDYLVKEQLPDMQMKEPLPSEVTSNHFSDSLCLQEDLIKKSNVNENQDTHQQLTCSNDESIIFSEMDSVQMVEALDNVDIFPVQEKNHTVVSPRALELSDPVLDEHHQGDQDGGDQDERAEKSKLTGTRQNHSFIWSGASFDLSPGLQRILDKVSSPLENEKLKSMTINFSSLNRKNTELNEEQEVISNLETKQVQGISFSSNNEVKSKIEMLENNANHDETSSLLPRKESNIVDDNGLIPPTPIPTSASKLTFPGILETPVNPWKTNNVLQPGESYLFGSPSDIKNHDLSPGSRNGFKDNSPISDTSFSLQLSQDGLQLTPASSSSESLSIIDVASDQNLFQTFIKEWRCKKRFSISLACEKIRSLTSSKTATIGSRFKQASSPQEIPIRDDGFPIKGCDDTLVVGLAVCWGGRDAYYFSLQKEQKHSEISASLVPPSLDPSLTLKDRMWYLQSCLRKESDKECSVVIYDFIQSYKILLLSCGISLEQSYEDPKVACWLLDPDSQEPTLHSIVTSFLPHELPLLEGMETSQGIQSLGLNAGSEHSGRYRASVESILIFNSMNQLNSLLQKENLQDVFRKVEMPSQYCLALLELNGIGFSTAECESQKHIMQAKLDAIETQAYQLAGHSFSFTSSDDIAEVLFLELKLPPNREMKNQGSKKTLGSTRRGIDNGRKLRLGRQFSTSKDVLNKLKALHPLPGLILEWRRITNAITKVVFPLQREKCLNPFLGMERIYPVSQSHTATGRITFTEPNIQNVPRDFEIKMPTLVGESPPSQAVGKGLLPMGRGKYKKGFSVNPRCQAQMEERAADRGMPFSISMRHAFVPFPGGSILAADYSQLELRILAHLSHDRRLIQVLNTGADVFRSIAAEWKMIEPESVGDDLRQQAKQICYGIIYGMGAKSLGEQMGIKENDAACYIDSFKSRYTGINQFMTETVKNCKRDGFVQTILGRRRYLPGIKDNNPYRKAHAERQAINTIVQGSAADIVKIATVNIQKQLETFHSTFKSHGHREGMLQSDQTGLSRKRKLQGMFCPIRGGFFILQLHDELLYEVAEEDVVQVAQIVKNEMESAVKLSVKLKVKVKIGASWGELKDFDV"}
{"Structure (SMILES)": "NC(=O)c1noc([C@H](CCCC2CCCCC2)CC(=O)NO)n1", "remaining activity [%]": 95.9}
{"Structure (SMILES)": "COCC(=O)Nc1c(I)c(C(=O)NCC(O)CO)c(I)c(C(=O)N(C)CC(O)CO)c1I (mixture of isomers)", "remaining activity [%]": 91.3}
{"Structure (SMILES)": "O=C(CCc1ccc(O)cc1)c1c(O)cc(O)cc1O[C@@H]1O[C@H](CO)[C@@H](O)[C@H](O)[C@H]1O", "remaining activity [%]": 96.5}
{"Structure (SMILES)": "CCN(CC)CCCCNc1ncc2cc(-c3cc(OC)cc(OC)c3)c(NC(=O)NC(C)(C)C)nc2n1", "remaining activity [%]": 97.2}
{"Structure (SMILES)": "CC(NC(=O)[C@H](Cc1ccccc1)NC(=O)OCc1ccccc1)C(=O)CF (stereo partly shown)", "remaining activity [%]": 101}
{"Structure (SMILES)": "Clc1cnccn1", "remaining activity [%]": 101}
{"Structure (SMILES)": "C=C1C(=O)O[C@H]2[C@H]1CC/C(C)=C/CC[C@@]1(C)O[C@@H]21", "remaining activity [%]": 130}
{"data": "Block 2", "SMILES": "Cc1nc(Nc2ncc(C(=O)Nc3c(C)cccc3Cl)s2)cc(N2CCN(CCO)CC2)n1", "mode": "inhibitor"}
{"target": "Bone morphogenetic protein receptor type-2 (BMPR2, Homo sapiens, UniProt Q13873)", "tested at": "1 µM", "inhibition [%]": "< 50"}
{"target": "Serine/threonine-protein kinase 16 (STK16, Homo sapiens, UniProt O75716)", "tested at": "10 µM", "inhibition [%]": "< 50"}
{"target": "Ribosomal protein S6 kinase alpha-1, kinase domain 2 (RPS6KA1, Homo sapiens, UniProt Q15418)", "tested at": "10 µM", "inhibition [%]": "< 50"}
{"target": "Cyclin-dependent kinase 11A (CDK11A, Homo sapiens, UniProt Q9UQ88)", "tested at": "10 µM", "inhibition [%]": "< 50"}
{"target": "MAP kinase-interacting serine/threonine-protein kinase 2 (MKNK2, Homo sapiens, UniProt Q9HBH9)", "tested at": "10 µM", "inhibition [%]": "< 50"}
{"target": "Hepatocyte growth factor receptor (MET, Homo sapiens, UniProt P08581)", "tested at": "10 µM", "inhibition [%]": "< 50"}
{"target": "Insulin-like growth factor 1 receptor (IGF1R, Homo sapiens, UniProt P08069)", "tested at": "10 µM", "inhibition [%]": "< 50"}
{"target": "MAP kinase-activated protein kinase 2 (MAPKAPK2, Homo sapiens, UniProt P49137)", "tested at": "1 µM", "inhibition [%]": "< 50"}
{"target": "Tyrosine-protein kinase SYK (SYK, Homo sapiens, UniProt P43405)", "tested at": "10 µM", "inhibition [%]": 91}
{"target": "Cyclin-dependent kinase 17 (CDK17, Homo sapiens, UniProt Q00537)", "tested at": "10 µM", "inhibition [%]": "< 50"}
{"target": "5'-AMP-activated protein kinase catalytic subunit alpha-2 (PRKAA2, Homo sapiens, UniProt P54646)", "tested at": "10 µM", "inhibition [%]": "< 50"}
{"target": "Calcium/calmodulin-dependent protein kinase kinase 1 (CAMKK1, Homo sapiens, UniProt Q8N5S9)", "tested at": "10 µM", "inhibition [%]": "< 50"}
{"data": "Block 3", "SMILES": "CCS(=O)(=O)c1cc2cc(C[C@@](O)(CC(C)(C)c3ccc(F)cc3C(N)=O)C(F)(F)F)[nH]c2cn1", "observed": "cell-free assay", "technique": "competition with immobilised ligand", "tested at": "1 µM"}
{"target": "Casein kinase I isoform alpha-like (CSNK1A1L, Homo sapiens, UniProt Q8N752)", "remaining binding [%]": 99}
{"target": "Serine/threonine-protein kinase Sgk1 (SGK1, Homo sapiens, UniProt O00141)", "remaining binding [%]": 79}
{"target": "Phosphatidylinositol 4-phosphate 5-kinase type-1 gamma (PIP5K1C, Homo sapiens, UniProt O60331)", "remaining binding [%]": 98}
{"target": "Phosphatidylinositol 4-phosphate 5-kinase type-1 alpha (PIP5K1A, Homo sapiens, UniProt Q99755)", "remaining binding [%]": 100}
{"target": "Serine/threonine-protein kinase Nek2 (NEK2, Homo sapiens, UniProt P51955)", "remaining binding [%]": 94}
{"target": "Cyclin-dependent kinase 5 (CDK5, Homo sapiens, UniProt Q00535)", "remaining binding [%]": 100}
{"target": "Serine/threonine-protein kinase LATS1 (LATS1, Homo sapiens, UniProt O95835)", "remaining binding [%]": 77}
{"target": "Phosphatidylinositol 4,5-bisphosphate 3-kinase catalytic subunit alpha isoform (PIK3CA, Homo sapiens, UniProt P42336)", "remaining binding [%]": 100}
{"target": "Myosin-IIIb (MYO3B, Homo sapiens, UniProt Q8WXR4)", "remaining binding [%]": 79}
{"target": "Serine/threonine-protein kinase MAK (MAK, Homo sapiens, UniProt P20794)", "remaining binding [%]": 100}
{"target": "Tyrosine-protein kinase ABL1, non-phosphorylated (ABL1, Homo sapiens, UniProt P00519)", "remaining binding [%]": 99}
{"target": "Homeodomain-interacting protein kinase 2 (HIPK2, Homo sapiens, UniProt Q9H2X6)", "remaining binding [%]": 100}
{"target": "Serine/threonine-protein kinase/endoribonuclease IRE1 (ERN1, Homo sapiens, UniProt O75460)", "remaining binding [%]": 75}
{"data": "Block 4", "SMILES": "COc1ccc2c(c1)c(C1=C(c3c[nH]c4ccccc34)C(=O)NC1=O)cn2CCCN(C)C", "observed": "enzyme activity", "mode": "inhibitor", "tested at": "0.5 µM", "reference": "control"}
{"target": "Dual specificity protein kinase CLK2 (CLK2, Homo sapiens, UniProt P49760)", "remaining activity [%]": 78}
{"target": "Serine/threonine-protein kinase Sgk2 (SGK2, Homo sapiens, UniProt Q9HBY8)", "remaining activity [%]": 92.6}
{"target": "Tyrosine-protein kinase Tec (TEC, Homo sapiens, UniProt P42680)", "remaining activity [%]": 97.9}
{"target": "Serine/threonine-protein kinase PAK 1 (PAK1, Homo sapiens, UniProt Q13153)", "remaining activity [%]": 87.4}
{"target": "Tyrosine-protein kinase receptor TYRO3 (TYRO3, Homo sapiens, UniProt Q06418)", "remaining activity [%]": 90.7}
{"target": "Calcium/calmodulin-dependent protein kinase kinase 1 (CAMKK1, Homo sapiens, UniProt Q8N5S9)", "remaining activity [%]": 94.8}
{"target": "Casein kinase I isoform delta (CSNK1D, Homo sapiens, UniProt P48730)", "remaining activity [%]": 92}
{"target": "Muscle, skeletal receptor tyrosine-protein kinase (MUSK, Homo sapiens, UniProt O15146)", "remaining activity [%]": 53.5}
{"target": "Insulin-like growth factor 1 receptor (IGF1R, Homo sapiens, UniProt P08069)", "remaining activity [%]": 115}
{"target": "Mitogen-activated protein kinase kinase kinase 20 (MAP3K20, Homo sapiens, UniProt Q9NYL2)", "remaining activity [%]": 95.9}
{"target": "Calcium/calmodulin-dependent protein kinase type 1 (CAMK1, Homo sapiens, UniProt Q14012)", "remaining activity [%]": 90.2}
{"target": "Vascular endothelial growth factor receptor 1 (FLT1, Homo sapiens, UniProt P17948)", "remaining activity [%]": 22}
{"target": "Protein kinase C zeta type (PRKCZ, Homo sapiens, UniProt Q05513)", "remaining activity [%]": 78.2}
{"target": "Casein kinase I isoform epsilon (CSNK1E, Homo sapiens, UniProt P49674)", "remaining activity [%]": 86.4}
{"target": "Tyrosine-protein kinase JAK1 (JAK1, Homo sapiens, UniProt P23458)", "remaining activity [%]": 100}
{"target": "Ephrin type-A receptor 2 (EPHA2, Homo sapiens, UniProt P29317)", "remaining activity [%]": 91.3}
{"target": "SRSF protein kinase 1 (SRPK1, Homo sapiens, UniProt Q96SB4)", "remaining activity [%]": 116}
{"target": "Cyclin-dependent kinase 2, with cyclin E (CDK2, Homo sapiens, UniProt P24941)", "remaining activity [%]": 97.9}
{"target": "Dual specificity protein kinase CLK1 (CLK1, Homo sapiens, UniProt P49759)", "remaining activity [%]": 48.2}
{"target": "Serine/threonine-protein kinase SIK2 (SIK2, Homo sapiens, UniProt Q9H0K1)", "remaining activity [%]": 103}
{"target": "Ribosomal protein S6 kinase alpha-3 (RPS6KA3, Homo sapiens, UniProt P51812)", "remaining activity [%]": 6.55}
{"target": "Protein kinase C theta type (PRKCQ, Homo sapiens, UniProt Q04759)", "remaining activity [%]": 4.5}
{"target": "Serine/threonine-protein kinase PAK 6 (PAK6, Homo sapiens, UniProt Q9NQU5)", "remaining activity [%]": 70.4}
{"note": "Repeated from above (block 4):"}
{"target": "Ephrin type-A receptor 2 (EPHA2, Homo sapiens, UniProt P29317)", "remaining activity [%]": 91.3}
{"target": "Cyclin-dependent kinase 2, with cyclin E (CDK2, Homo sapiens, UniProt P24941)", "remaining activity [%]": 97.9}
{"target": "Protein kinase C zeta type (PRKCZ, Homo sapiens, UniProt Q05513)", "remaining activity [%]": 78.2}
{"target": "Dual specificity protein kinase CLK1 (CLK1, Homo sapiens, UniProt P49759)", "remaining activity [%]": 48.2}
{"target": "Serine/threonine-protein kinase SIK2 (SIK2, Homo sapiens, UniProt Q9H0K1)", "remaining activity [%]": 103}
{"target": "Tyrosine-protein kinase receptor TYRO3 (TYRO3, Homo sapiens, UniProt Q06418)", "remaining activity [%]": 90.7}
